Published values gathered from unrelated publications.
A part holds a random share of what one study measured.

Set 1 — method: protein-binding microarray; molecule type: double-stranded DNA, one strand shown; sample: in vitro; concentration: 250 nM; setting: 60-bp whole probe; with: salmon DNA 0.4 mg/ml; reference: random background probes; direction: higher = stronger binding
Target: Interferon regulatory factor 7, full length, phosphomimetic (IRF7, Homo sapiens, UniProt Q92985, residues 1-503, S101K/S471D/S472D/S475D/S476D/S477D/S483D/S484D/S487D)
Chain of UniProt Q92985 (whole entry, unmodified, looked up): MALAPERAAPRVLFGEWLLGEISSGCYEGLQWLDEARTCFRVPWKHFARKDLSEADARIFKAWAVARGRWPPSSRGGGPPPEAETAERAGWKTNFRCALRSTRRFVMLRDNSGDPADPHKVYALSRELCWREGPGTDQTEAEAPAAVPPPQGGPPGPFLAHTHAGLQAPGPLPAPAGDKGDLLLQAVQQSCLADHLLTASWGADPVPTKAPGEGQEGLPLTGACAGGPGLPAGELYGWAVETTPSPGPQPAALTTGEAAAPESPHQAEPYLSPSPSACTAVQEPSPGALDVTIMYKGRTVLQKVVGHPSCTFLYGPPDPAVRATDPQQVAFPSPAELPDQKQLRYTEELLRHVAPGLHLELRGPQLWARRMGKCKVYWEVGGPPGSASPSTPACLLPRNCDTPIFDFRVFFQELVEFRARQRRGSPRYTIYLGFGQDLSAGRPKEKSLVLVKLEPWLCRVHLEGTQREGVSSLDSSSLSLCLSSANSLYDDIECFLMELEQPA
With `GCCTAGCACGACGGACTGCTTTTCCAGACGTGCTAGGTCTTGATTCGCTTGACGCTGCTG` the log fluorescence was -0.0795 z-score.
`GCCTAGCACTAAGGACTGGGACTGGGTTAGTGCTAGGTCTTGATTCGCTTGACGCTGCTG` has a log fluorescence of -0.0278 z-score.
`GCCTAGCACTTAGGTCTGGACTATCGGTTAGTGCTAGTCTTGATTCGCTTGACGCTGCTG` gave a log fluorescence of -0.456 z-score.
For `GCCTAGCACTTAGGACTGGACTTTTGGTTAGTGCTAGTCTTGATTCGCTTGACGCTGCTG`, the log fluorescence was -0.532 z-score.

Set 2 — method: protein binding microarray; molecule type: double-stranded DNA, one strand shown; sample: in vitro; concentration: not given; reference: not given; direction: higher = stronger binding
Target: Histone acetyltransferase KAT6A, winged helix 1, GST fusion (KAT6A, Homo sapiens, UniProt Q92794, residues 1-85)
Setting: 8-mer, flanks averaged, mean of 2 arrays, mostly near background
Construct (chain): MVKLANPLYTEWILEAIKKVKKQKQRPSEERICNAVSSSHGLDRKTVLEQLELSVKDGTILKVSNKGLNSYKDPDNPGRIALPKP
`ATACAAGG` has an E-score of -0.228.
`AGGGCCTA` has an E-score of -0.113.
The E-score of `ATTTTGTG` is reported as -0.187.
The E-score of `AGTTGTCA` is reported as -0.125.

Mixed results
PHO4 full length, GST-tagged: Phosphate system positive regulatory protein PHO4, full length, GST-tagged (PHO4, Saccharomyces cerevisiae, UniProt P07270, residues 1-312)
Chain of UniProt P07270 (whole entry, looked up): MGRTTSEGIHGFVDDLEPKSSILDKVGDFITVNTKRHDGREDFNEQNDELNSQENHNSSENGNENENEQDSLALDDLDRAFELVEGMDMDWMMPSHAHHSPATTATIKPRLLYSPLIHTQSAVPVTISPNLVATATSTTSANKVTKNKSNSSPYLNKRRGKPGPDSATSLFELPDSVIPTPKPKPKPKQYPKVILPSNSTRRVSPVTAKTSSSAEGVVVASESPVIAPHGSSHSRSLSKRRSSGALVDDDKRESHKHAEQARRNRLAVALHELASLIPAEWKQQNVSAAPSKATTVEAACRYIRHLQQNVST
For `GTCTTGTCTCATTGAGCTGTGGGTGTCCCCACTTCAGTCTTGATTCGCTTGACGCTGCTG`, the fluorescence intensity was 4440 a.u. (PHO4 full length, GST-tagged; competition protein-binding microarray; double-stranded DNA, one strand shown, in vitro; 2 µM, whole 60-bp probe, lowest competitor level, with: Cbf1 competitor, 0.05 µM; higher = stronger binding).
For `PhoQ, residues 284 288 289 292 302 303 GANMMA`, the fold induction was 1.33 (PhoP, residues 12 14 15 18 19 HLGGL (Escherichia coli, UniProt P23836); Sort-seq, refers to: YFP reporter; E. coli; PhoQ-PhoP variant library, with: 10 µM Mg2+; reference: high Mg2+ state, higher = stronger signaling).
For `AAAGCGGTAATTTGTCACAGGACTTCACATATCTATGTCTTGATTCGCTTGACGCTGCTG`, the fluorescence intensity was 3310 a.u. (PHO4 full length, GST-tagged; competition protein-binding microarray; double-stranded DNA, one strand shown, in vitro; 2 µM, whole 60-bp probe, lowest competitor level, with: Cbf1 competitor, 0.05 µM; higher = stronger binding).

Excerpt of the above (set 2):
The E-score of `ATTTTGTG` is reported as -0.187.
